Measured values of several laboratories.
Numbered parts are unrelated; each lists some results of a single study.
Sequence of UniProt Q9BQI3 (whole entry, looked up): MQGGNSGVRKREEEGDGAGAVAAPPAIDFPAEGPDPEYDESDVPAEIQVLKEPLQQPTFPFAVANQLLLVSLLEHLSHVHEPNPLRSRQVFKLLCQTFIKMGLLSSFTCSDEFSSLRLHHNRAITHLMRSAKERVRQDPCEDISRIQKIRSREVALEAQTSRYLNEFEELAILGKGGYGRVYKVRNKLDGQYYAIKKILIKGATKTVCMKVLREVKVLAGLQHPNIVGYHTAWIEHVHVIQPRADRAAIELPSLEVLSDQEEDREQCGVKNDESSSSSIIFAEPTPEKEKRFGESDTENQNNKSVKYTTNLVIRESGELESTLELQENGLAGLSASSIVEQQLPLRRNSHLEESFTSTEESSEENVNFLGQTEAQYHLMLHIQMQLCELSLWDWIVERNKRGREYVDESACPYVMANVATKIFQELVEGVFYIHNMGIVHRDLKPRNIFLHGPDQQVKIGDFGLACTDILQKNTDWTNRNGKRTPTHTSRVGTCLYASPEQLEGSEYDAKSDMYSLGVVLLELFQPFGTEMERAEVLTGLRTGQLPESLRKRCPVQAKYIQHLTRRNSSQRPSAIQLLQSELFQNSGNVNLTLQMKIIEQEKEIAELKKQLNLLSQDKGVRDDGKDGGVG
Sequence of UniProt P52333 (whole entry, looked up): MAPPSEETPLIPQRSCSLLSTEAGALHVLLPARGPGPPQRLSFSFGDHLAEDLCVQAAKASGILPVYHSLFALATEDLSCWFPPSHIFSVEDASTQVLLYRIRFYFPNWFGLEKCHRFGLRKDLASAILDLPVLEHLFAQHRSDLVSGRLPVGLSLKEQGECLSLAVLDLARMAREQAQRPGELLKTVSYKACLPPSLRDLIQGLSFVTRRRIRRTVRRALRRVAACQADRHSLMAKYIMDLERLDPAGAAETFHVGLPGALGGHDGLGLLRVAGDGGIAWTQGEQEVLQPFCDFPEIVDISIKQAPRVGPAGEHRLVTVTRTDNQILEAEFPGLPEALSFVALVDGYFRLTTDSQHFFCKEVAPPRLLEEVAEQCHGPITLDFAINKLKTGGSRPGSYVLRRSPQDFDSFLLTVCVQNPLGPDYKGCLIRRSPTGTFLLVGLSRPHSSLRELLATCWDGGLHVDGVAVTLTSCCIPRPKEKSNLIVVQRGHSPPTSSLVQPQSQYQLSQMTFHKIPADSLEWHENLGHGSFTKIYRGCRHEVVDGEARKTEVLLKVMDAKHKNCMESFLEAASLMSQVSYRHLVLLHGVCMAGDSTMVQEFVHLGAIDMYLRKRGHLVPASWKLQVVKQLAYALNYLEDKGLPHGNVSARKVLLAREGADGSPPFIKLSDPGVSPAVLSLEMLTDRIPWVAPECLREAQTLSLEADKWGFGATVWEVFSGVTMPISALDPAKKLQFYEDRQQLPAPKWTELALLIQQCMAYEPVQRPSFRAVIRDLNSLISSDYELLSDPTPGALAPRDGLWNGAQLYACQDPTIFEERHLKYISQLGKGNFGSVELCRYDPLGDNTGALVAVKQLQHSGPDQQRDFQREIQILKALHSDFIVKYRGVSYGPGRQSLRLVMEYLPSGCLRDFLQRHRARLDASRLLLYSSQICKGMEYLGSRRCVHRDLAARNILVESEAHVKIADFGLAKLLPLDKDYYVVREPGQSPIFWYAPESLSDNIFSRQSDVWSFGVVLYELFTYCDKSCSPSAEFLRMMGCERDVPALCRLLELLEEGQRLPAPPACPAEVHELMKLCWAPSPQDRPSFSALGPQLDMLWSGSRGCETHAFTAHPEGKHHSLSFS
Sequence of UniProt Q08881 (whole entry, looked up): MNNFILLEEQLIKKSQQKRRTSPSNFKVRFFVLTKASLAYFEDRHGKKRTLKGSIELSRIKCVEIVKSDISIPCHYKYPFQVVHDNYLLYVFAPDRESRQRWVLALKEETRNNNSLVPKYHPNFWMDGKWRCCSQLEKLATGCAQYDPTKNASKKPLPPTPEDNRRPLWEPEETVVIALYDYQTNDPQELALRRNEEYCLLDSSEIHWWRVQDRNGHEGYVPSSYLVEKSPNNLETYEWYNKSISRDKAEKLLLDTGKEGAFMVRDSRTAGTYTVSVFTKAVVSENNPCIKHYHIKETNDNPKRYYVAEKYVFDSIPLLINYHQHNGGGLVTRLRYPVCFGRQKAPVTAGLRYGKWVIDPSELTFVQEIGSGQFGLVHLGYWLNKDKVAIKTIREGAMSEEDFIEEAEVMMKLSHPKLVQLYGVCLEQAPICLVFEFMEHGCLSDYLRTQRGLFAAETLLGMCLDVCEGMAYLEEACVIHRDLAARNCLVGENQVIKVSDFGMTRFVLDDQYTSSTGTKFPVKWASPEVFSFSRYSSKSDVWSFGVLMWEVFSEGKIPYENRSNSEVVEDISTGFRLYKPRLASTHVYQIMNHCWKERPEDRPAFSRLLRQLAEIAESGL
Sequence of UniProt Q13043 (whole entry, looked up): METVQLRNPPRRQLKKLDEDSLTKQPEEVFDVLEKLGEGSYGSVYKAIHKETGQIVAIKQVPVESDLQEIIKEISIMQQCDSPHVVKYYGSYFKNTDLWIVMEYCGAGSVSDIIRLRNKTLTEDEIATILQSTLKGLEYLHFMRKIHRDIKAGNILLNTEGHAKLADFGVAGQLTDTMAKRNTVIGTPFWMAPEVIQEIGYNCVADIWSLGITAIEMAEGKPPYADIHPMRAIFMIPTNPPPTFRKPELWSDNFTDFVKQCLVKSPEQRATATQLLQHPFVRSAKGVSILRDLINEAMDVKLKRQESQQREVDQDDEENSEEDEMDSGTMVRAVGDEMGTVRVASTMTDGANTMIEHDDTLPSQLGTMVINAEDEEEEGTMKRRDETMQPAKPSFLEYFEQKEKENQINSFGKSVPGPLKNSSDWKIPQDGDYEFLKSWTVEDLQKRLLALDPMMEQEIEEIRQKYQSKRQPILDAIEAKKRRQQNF
Sequence of UniProt O94921 (whole entry, looked up): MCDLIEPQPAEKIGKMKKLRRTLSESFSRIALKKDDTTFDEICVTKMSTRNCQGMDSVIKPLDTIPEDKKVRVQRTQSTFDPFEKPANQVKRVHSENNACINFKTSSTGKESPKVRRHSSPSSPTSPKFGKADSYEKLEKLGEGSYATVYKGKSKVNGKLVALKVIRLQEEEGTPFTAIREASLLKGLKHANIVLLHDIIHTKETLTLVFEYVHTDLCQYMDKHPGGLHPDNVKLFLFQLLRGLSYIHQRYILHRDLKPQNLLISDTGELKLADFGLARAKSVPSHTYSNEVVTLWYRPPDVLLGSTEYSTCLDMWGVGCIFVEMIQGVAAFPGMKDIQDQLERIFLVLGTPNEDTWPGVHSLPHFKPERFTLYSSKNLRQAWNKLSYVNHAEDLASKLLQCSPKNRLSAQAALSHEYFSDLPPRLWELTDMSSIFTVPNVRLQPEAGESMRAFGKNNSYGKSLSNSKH

Set 1
Cell line: A-375
Concentration: 100 µM
Time: 18 h
For `CCC(=O)c1c(O)cc(O)cc1O`, the viability was 69.5%.
`CO/N=C(\C(=O)N[C@@H]1C(=O)N2C(C(=O)OC(C)OC(C)=O)=C(COC(N)=O)CS[C@H]12)c1ccco1` (stereo partly drawn) gave a viability of 106%.
`COc1cc(/C=C/C(=O)N2CCN(CC(=O)N3CCCC3)CC2)cc(OC)c1OC` has a viability of 101%.
`COc1ccc(-c2cc(=O)c3c(O)cc(O[C@@H]4O[C@H](CO[C@@H]5O[C@@H](C)[C@H](O)[C@@H](O)[C@H]5O)[C@@H](O)[C@H](O)[C@H]4O)cc3o2)cc1O` has a viability of 85.6%.
For `C[C@H]1[C@H](NC(=O)/C(=N\OC(C)(C)C(=O)O)c2csc(N)n2)C(=O)N1S(=O)(=O)O`, the viability was 100%.
The viability of `c1ccc(C2CN3CCSC3=N2)cc1` (stereo not drawn) is reported as 66.1%.
For `CN1[C@@H]2CCC[C@H]1C[C@@H](NC(=O)c1nn(C)c3ccccc13)C2`, the viability was 92%.
`CCCCCCOC(=O)NC(=N)c1ccc(NCc2nc3cc(C(=O)N(CCC(=O)OCC)c4ccccn4)ccc3n2C)cc1` gave a viability of 36.7%.
With `Nc1cc(F)ccc1NC(=O)c1ccc(CNC(=O)/C=C/c2cccnc2)cc1` the viability was 56.6%.
`CC1CCC(C(C)C)C(O)C1` (racemic) has a viability of 81%.

Set 2
Host: human
Matrix: microsomes or S9
Concentration: 2 µM
Time: 0.5 h
The remaining compound of `COC(=O)C1(CCCN(C)CCc2ccc(OC)c(OC)c2)CCCc2c1ccc(OC)c2OC` (stereo not drawn) is reported as 12.2%.
The remaining compound of `O=C(Cn1c(=O)n2nc(-c3cccnc3)nc2c2c3c(sc21)CCC3)NCc1ccco1` is reported as 39.4%.
For `CN(C(=O)NCC(=O)NC1C2CC3CC1CC(C(N)=O)(C3)C2)c1c(Cl)cc(Cl)cc1Cl` (stereo not drawn), the remaining compound was 1.47%.
With `O=c1ccc2cnc(Nc3cnn(C4CCNCC4)c3)nc2n1C1CCCCCC1` the remaining compound was 74.7%.
For `Cn1ncnc1CN(Cc1ccc2c(c1)OCO2)C1CCCCC1`, the remaining compound was 2.66%.
`Cc1cc(C)cc(-n2nc(C(=O)N(CC(N)=O)CC(C)C)cc2C)c1` gave a remaining compound of 40.6%.

Set 3
SMILES: Cn1cc(Cl)c2c(Oc3c(F)cc(Nc4cc(Cl)nc(N)n4)cc3F)ccnc21
Observed: cell-free assay
Method: competition with immobilised ligand
Concentration: 0.1 µM
It gave 97% for remaining binding (EGFR (Homo sapiens, UniProt P00533)).
For IRAK1 (Homo sapiens, UniProt P51617): remaining binding read 95%.
It gave 100% for remaining binding (Ribosomal protein S6 kinase alpha-2, C-terminal kinase domain (RPS6KA2, Homo sapiens, UniProt Q15349)).
For PIK3CA (Homo sapiens, UniProt P42336, E545K): remaining binding read 78%.
For EIF2AK2 (Homo sapiens, UniProt P19525): remaining binding read 100%.
It gave 100% for remaining binding (AXL (Homo sapiens, UniProt P30530)).
It gave 94% for remaining binding (STK4 (Homo sapiens, UniProt Q13043)).
For CDK3 (Homo sapiens, UniProt Q00526): remaining binding read 100%.
It gave 100% for remaining binding (CDK14 (Homo sapiens, UniProt O94921)).
For ITK (Homo sapiens, UniProt Q08881): remaining binding read 97%.
The remaining binding was 95% (Tyrosine-protein kinase ABL1, phosphorylated (ABL1, Homo sapiens, UniProt P00519, H396P)).
It gave 82% for remaining binding (GRK7 (Homo sapiens, UniProt Q8WTQ7)).
RET (Homo sapiens, UniProt P07949, V804M) — remaining binding: 95%.
For NEK5 (Homo sapiens, UniProt Q6P3R8): remaining binding read 100%.
The remaining binding was 86% (MAP4K4 (Homo sapiens, UniProt O95819)).
It gave 94% for remaining binding (CDK15 (Homo sapiens, UniProt Q96Q40)).
For EIF2AK1 (Homo sapiens, UniProt Q9BQI3): remaining binding read 100%.
For Tyrosine-protein kinase JAK3, JH1 (JAK3, Homo sapiens, UniProt P52333): remaining binding read 94%.
SRC (Homo sapiens, UniProt P12931) — remaining binding: 92%.

Set 4
Target: Activin receptor type-1 (ACVR1, Homo sapiens, UniProt Q04771)
Observed: enzyme activity
Action: inhibitor
Concentration: 0.5 µM
Baseline: control
Construct (Q04771 1-509): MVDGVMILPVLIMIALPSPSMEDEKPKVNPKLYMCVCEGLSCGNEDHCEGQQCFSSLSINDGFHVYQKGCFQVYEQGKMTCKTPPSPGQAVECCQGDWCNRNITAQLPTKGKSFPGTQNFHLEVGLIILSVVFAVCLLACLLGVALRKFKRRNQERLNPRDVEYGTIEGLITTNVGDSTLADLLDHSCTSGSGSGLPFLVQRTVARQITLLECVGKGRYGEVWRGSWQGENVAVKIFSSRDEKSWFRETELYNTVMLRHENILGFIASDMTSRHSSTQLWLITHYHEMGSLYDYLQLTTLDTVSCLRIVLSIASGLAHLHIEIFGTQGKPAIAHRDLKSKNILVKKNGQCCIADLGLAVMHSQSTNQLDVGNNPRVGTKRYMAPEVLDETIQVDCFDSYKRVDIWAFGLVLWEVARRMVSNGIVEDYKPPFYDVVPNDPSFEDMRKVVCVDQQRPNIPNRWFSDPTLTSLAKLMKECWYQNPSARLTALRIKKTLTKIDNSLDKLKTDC
`COc1cc2ncnc(N3CCN(C(=O)Nc4ccc(Oc5ccccc5)cc4)CC3)c2cc1OC` has a remaining activity of 100%.
`Cc1nc(Nc2ncc(C(=O)Nc3c(C)cccc3Cl)s2)cc(N2CCN(CCO)CC2)n1` has a remaining activity of 197%.
`CCOc1cc2ncnc(Nc3cccc(Br)c3)c2cc1OCC` gave a remaining activity of 97.1%.
`Cn1cnc2cc3c(Nc4cccc(Br)c4)ncnc3cc21` has a remaining activity of 109%.
The remaining activity of `CS(=O)(=O)CCNCc1ccc(-c2ccc3ncnc(Nc4ccc(OCc5cccc(F)c5)c(Cl)c4)c3c2)o1` is reported as 106%.
`Nc1[nH]nc2nnc(-c3c(-c4ccccc4)nn4ccccc34)cc12` gave a remaining activity of 107%.
For `COc1cc2ncnc(Nc3ccc(OCc4ccccc4)cc3)c2cc1OC`, the remaining activity was 101%.
For `CC(C)c1nn(-c2c(Cl)cccc2Cl)c2nc(Cc3ccc(OCCO)cc3)[nH]c(=O)c12`, the remaining activity was 94.7%.
`COc1cc2ncc(-c3ccccc3)nc2cc1OC` gave a remaining activity of 99.3%.
For `Cc1ccc(NC(=O)c2ccc(CN3CCN(C)CC3)cc2)cc1Nc1nccc(-c2cccnc2)n1`, the remaining activity was 101%.
`CN(C)CCCn1cc(C2=C(c3c[nH]c4ccccc34)C(=O)NC2=O)c2ccccc21` gave a remaining activity of 96.3%.
The remaining activity of `Cn1cc(/C=C2\C(=O)Nc3ccc(S(N)(=O)=O)cc32)c2ccccc21` is reported as 111%.
`COc1ccc(Cl)cc1NC(=O)Nc1cc(C)nc2ccccc12` gave a remaining activity of 76.2%.
`O=C1NC(=O)/C(=C/c2ccc3nccnc3c2)S1` gave a remaining activity of 102%.
With `CCN1/C(=C/C(C)=O)Sc2ccc(OC)cc21` the remaining activity was 88.1%.
For `CCC(=O)Nc1ccc2ncnc(Nc3cccc(Br)c3)c2c1`, the remaining activity was 93.7%.
`O=c1cc(N2CCOCC2)oc2c1ccc1ccccc12` has a remaining activity of 107%.
For `O=C(Nc1ccc(Cl)cc1)c1ccccc1NCc1ccncc1`, the remaining activity was 97.2%.
For `CC(C)[C@H](CO)Nc1nc(Nc2cccc(Cl)c2)c2ncn(C(C)C)c2n1`, the remaining activity was 92.6%.

Excerpt of the above (set 2):
For `Cn1ncnc1CN(Cc1ccc2c(c1)OCO2)C1CCCCC1`, the remaining compound was 2.66%.
`Cc1cc(C)cc(-n2nc(C(=O)N(CC(N)=O)CC(C)C)cc2C)c1` gave a remaining compound of 40.6%.
The remaining compound of `COC(=O)C1(CCCN(C)CCc2ccc(OC)c(OC)c2)CCCc2c1ccc(OC)c2OC` (stereo not drawn) is reported as 12.2%.
For `CN(C(=O)NCC(=O)NC1C2CC3CC1CC(C(N)=O)(C3)C2)c1c(Cl)cc(Cl)cc1Cl` (stereo not drawn), the remaining compound was 1.47%.
The remaining compound of `O=C(Cn1c(=O)n2nc(-c3cccnc3)nc2c2c3c(sc21)CCC3)NCc1ccco1` is reported as 39.4%.
With `O=c1ccc2cnc(Nc3cnn(C4CCNCC4)c3)nc2n1C1CCCCCC1` the remaining compound was 74.7%.
